Published values from different studies.

C=CC(=O)Nc1cc(Nc2nccc(-c3cn(C)c4ccccc34)n2)c(OC)cc1N(C)CCN(C)C: “patients with adverse events” 4% (measured: treatment-related grade ≥3 Vomiting; EGFR-mutant MET-altered NSCLC; oral, dose not given, all).
Under “patients with adverse event”, Cc1cc(NC2CCN(C(=O)OC3CCN(C(=O)/C=C/CN(C)C)C3)CC2)n2ncc(C(C)C)c2n1 (stereo not shown) is recorded as 2% (Phase I dose escalation CTCAE v4.0, measured: decreased appetite; patients with advanced solid tumours; dose not given, Total dosing grade 3 or higher).
COc1cc(Nc2ncc3c(n2)-c2ccc(Cl)cc2C(c2c(F)cccc2OC)=NC3)ccc1C(=O)O — result for “patients with adverse event”: 17% (measured: increased AST, grade 1; cancer patients, phase 1/2; oral, dose not given, added: pembrolizumab).
COc1ccc([C@@H](O)c2cc(-c3ncnc4cc(N5CCOCC5)ccc34)c(F)cc2Cl)nn1 — result for “patients with drug-related AE”: 100% (measured: general and administration site disorders; locally advanced rectal cancer patients; 50 mg, added: capecitabine plus radiotherapy).
C=CCN1CC(=O)N2[C@@H](Cc3ccc(O)cc3F)C(=O)N(Cc3cccc(N4CC(N5CCN(CC)CC5)C4)n3)C[C@@H]2N1C(=O)NCc1ccccc1 — result for “patients with ALT increased”: 12.5% (advanced solid tumour patients; 120 mg twice daily, treatment-related, any grade).
For C=CC[C@@H]1/C=C(\C)C[C@H](C)C[C@H](OC)[C@H]2O[C@@](O)(C(=O)C(=O)N3CCCC[C@H]3C(=O)O[C@H](/C(C)=C/[C@@H]3CC[C@@H](O)[C@H](OC)C3)[C@H](C)[C@@H](O)CC1=O)[C@H](C)C[C@@H]2OC, “patients with supratherapeutic C0” read 0% (kidney transplant recipients, CYP3A5*1/*1 or *1/*3 rapid metabolizers, whole blood; oral, dose not given).
CC(C)C[C@H](NC(=O)[C@@H](Cc1c[nH]c2ccccc12)NC(=O)[C@H](Cc1ccc(O)cc1)NC(=O)[C@H](CO)NC(=O)[C@H](Cc1c[nH]c2ccccc12)NC(=O)[C@H](Cc1c[nH]cn1)NC(=O)[C@@H]1CCC(=O)N1)C(=O)N[C@@H](CCCNC(=N)N)C(=O)N1CCC[C@H]1C(=O)NCC(N)=O: “patients with adverse events” 100% (Chinese CPP children, boys; intramuscular, 22.5 mg, 12 months, day 1, month 6).
CC(=O)O[C@H]1C(=O)[C@@]2(C)[C@H]([C@H](OC(=O)c3ccccc3)[C@]3(O)C[C@H](OC(=O)[C@H](O)[C@@H](NC(=O)c4ccccc4)c4ccccc4)C(C)=C1C3(C)C)[C@]1(OC(C)=O)CO[C@@H]1C[C@@H]2O — result for “patients with ALT increase”: 19% (patients with advanced solid tumours; intravenous, dose not given, all grades, related to treatment).
For CNC(=O)c1cc(Oc2ccc(NC(=O)Nc3cc(C(C)(C)C)nn3-c3ccc4ncccc4c3)c(F)c2)ccn1, “patients with cardiac disorders” read 12% (patients; oral, dose not given, cycles 1 and 2, Low Cmax subgroup).
Under “patients with QTcF over threshold”, COCCOc1cnc2ccn([C@H](C)c3nnc4c(F)cc(-c5cnn(C)c5)cn34)c(=O)c2c1 is recorded as 8.1% (cancer patients; oral, dose not given, absolute QTcF >480 ms).
The patients of CCOc1c([C@H](C)n2nc(C)c3c(N)ncnc32)cc(Cl)c(F)c1[C@@H]1CNC(=O)C1 is reported as 0% (measured: QTcF change above 60 ms; previously treated B-cell malignancy; oral, 30 mg once daily, overall population; reference: baseline).
For NC(=O)N1c2ccccc2C=Cc2ccccc21, “patients with back pain” read 7% (male patients; oral, dose not given, treatment-related adverse events).
For Cc1ccc(C(=O)N(CCCN)C(c2nc3snc(C)c3c(=O)n2Cc2ccccc2)C(C)C)cc1 (stereo not shown), “patients with grade ≥3 adverse events” read 62% (patients; intravenous, dose not given, all doses).
Under “patients with adverse event”, CNC(=O)c1ccc(-c2cnc3ncc(Cc4ccc5ncccc5c4)n3n2)cc1F is recorded as 0% (measured: Dyspnea; hepatocellular carcinoma patients; oral, 600 mg twice daily, expansion cohort, grade 3-4).
For Cc1cc(Nc2ccc(S(F)(F)(F)(F)F)cc2)n2nc(C(C)(F)F)nc2n1, “patients with eye disorders” read 0% (Plasmodium vivax malaria patients; oral, 600 mg).
C[C@@H](Nc1cc(F)cc(F)c1)c1cc(C(=O)N(C)C)cc2c(=O)cc(N3CCOCC3)oc12: “patients discontinuing for AE” 0% (CTCAE v4, measured: pulmonary embolism; patients with advanced solid tumours; oral, dose not given, phase I dose finding).
O=C(Nc1nc2cccc(-c3ccc(CN4CCS(=O)(=O)CC4)cc3)n2n1)C1CC1: “patients with Regurgitation” 0% (rheumatoid arthritis patients; oral, 100 mg twice daily, 4 weeks, TEAE regardless of relatedness).
For Cc1cc(-c2nnc(N)nc2-c2ccc(F)cc2)cc(Cl)n1, “patients with immune-mediated AE” read 0% (measured: Colitis; IO-naive colorectal cancer patients; oral, dose not given, treatment-related, grade ≥3).
Under “patients with treatment-related adverse event”, FC(F)(F)c1ccc(CNc2ccc(Cc3c[nH]c4ncc(Cl)cc34)cn2)cn1 is recorded as 4% (measured: gastroesophageal reflux disease; advanced solid tumour patients; oral, 1000 mg/day, all grades, all cohorts).

For quick reference, copied from above:
For NC(=O)N1c2ccccc2C=Cc2ccccc21, “patients with back pain” read 7% (male patients; oral, dose not given, treatment-related adverse events).
C=CCN1CC(=O)N2[C@@H](Cc3ccc(O)cc3F)C(=O)N(Cc3cccc(N4CC(N5CCN(CC)CC5)C4)n3)C[C@@H]2N1C(=O)NCc1ccccc1 — result for “patients with ALT increased”: 12.5% (advanced solid tumour patients; 120 mg twice daily, treatment-related, any grade).
CC(C)C[C@H](NC(=O)[C@@H](Cc1c[nH]c2ccccc12)NC(=O)[C@H](Cc1ccc(O)cc1)NC(=O)[C@H](CO)NC(=O)[C@H](Cc1c[nH]c2ccccc12)NC(=O)[C@H](Cc1c[nH]cn1)NC(=O)[C@@H]1CCC(=O)N1)C(=O)N[C@@H](CCCNC(=N)N)C(=O)N1CCC[C@H]1C(=O)NCC(N)=O: “patients with adverse events” 100% (Chinese CPP children, boys; intramuscular, 22.5 mg, 12 months, day 1, month 6).
